Measurements of several laboratories.
Every numbered part comes from another study and shows a few of its results, in no order.

Study 1
Target: RING finger protein unkempt homolog, zinc fingers 1-6, GST-SBP tag (UNK, Homo sapiens, UniProt Q9C0B0, residues 30-357)
Sequence of UniProt Q9C0B0 (30-357, looked up): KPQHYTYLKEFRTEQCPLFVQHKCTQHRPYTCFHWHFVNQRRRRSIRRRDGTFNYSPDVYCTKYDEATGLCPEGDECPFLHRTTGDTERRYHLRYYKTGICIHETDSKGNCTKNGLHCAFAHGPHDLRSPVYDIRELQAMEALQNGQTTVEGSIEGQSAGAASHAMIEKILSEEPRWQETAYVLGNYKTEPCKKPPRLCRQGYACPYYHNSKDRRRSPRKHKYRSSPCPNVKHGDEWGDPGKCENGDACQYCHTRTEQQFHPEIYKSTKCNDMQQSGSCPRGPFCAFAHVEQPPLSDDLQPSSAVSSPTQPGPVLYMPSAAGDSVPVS
Technique: RNA Bind-n-Seq
Form: RNA
Sample: in vitro
Concentration: not given
Notes: RNA with constant flanks, human-mouse chimeric sites, ends assumed
Baseline: input RNA pool
Reading: higher = stronger binding
| Oligonucleotide | bound/input enrichment |
| --- | --- |
| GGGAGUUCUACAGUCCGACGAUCUCUUUAAAUGCACUACAACCUUUUCUGACAGUGCUUUCCCUCCCAUAGAUCCACGUUCAAGCUCAAAGAGCAAAGGCUCCGCAAACAGCUCAAACAUCUGAUGAAGAAAGAUUUCUGAGACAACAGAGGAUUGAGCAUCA | 0.405 ratio |
| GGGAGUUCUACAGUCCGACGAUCUAAGUCCAUUUGUAAGCCUUCGCUCAUAAAGUUUUAAAUUCUGGACCAAUAGUGUUUGUUUCCUGAUUAUUGUAUCCAAUACUUUAUCUAGUAUGUAACUCACUCUUACUGAUAAUAAAACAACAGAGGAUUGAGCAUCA | 0.93 ratio |
| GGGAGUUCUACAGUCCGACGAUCUUGAAAACUGAUUCAAGCAAGUUUGAAUAUCACAAUGUUAGCUUUCUAAUUCCACACAAGUACUUGGUUUUUACAGUUUAUAAUCUGACAUCACCCCAGCGCCAUUUGUAAAGAGCAACUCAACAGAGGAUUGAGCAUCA | 0.6 ratio |
| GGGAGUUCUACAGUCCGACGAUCACCAUUUUCGCGGUUCAGGCUUUGUGUUGUAUUUACUUACGGUAUUAAAUUAUUAUUCUGCUUAGCUUAUAAUAAGGAUAAUUGCAUUUAAAGAGGUUACUGAAUGUUGUUAUUGUUCUUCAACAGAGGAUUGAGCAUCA | 0.991 ratio |
| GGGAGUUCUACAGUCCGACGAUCUAAAUCCUGUGCCAGCACUUCGCUCAUAAAGUUUUAAAUUCUGGACCAAUAGUGUUUGUUUCCUGAUUAUUGUAUCCAAUACUUUAUCUAGUAUGUAACUCACUCUUACUGAUAAUAAAACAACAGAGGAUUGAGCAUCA | 1.68 ratio |
| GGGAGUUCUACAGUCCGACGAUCUUGAAAACAAACUGAUUUAAGUUUGAGUAUCACAAUGUUAGCUUUCUAAUUCCAUAAAAGUACUUGGUUUUUACAGUUUAUAAUCUGACAUCACCCCCCGUUUAUAAGUAAAGAGCAACUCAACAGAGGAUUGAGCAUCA | 0.815 ratio |
| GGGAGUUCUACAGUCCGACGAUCCCUGCUCAGAUCACCAUGAAAGUAAUCCAAGGCCUAUAUAGUGGGGUCACCACAGUGGAACUGGACACCCUGGCUGCUGAGACAGCCGCGACCUUGACUACUAAGCACCCUGACUAUGCCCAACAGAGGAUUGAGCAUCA | 0.151 ratio |
| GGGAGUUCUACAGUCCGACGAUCUCUGGUCACACUCGUGUGUAUGGUGUUUGCUUUGUGGACACUUCACUGGGCAAGUUUUUCAUCGGCCAGUUUUCGGAUGACCGCCACUGUUCGAGAUUUAGGACUCUAGUGGCUCACUAUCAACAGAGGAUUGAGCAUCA | 0.139 ratio |
| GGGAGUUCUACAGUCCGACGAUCGCACUUCUCAAAUACUGGCCAAAGACUCACAGUCCAAAAGAAGUAAUGUUCUUAAAUGAAUUAGAAGAGAUUUUAGAUGUAAUUGAACCAUCAGAGUUUGUGAAGAUCAUGGAACCCCUUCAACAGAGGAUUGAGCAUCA | 0.781 ratio |
| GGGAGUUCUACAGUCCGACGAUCAGAAAGCAAAACUUGGAACGAUUUAAGAAAGGAGACGUAAGAUUCUUGAUUUGCACAGAUGUAGCUGCUAGAGGGAUUGAUAUCCAUGGCGUUCCUUAUGUUAUAAACGUCACCCUGCCUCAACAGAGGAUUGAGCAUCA | 0.228 ratio |
| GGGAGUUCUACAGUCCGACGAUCUCCCAAAUCCAGCAGCUAGAAGGAGCCUUGAGACAAACACUCCACACACAGGGAAGGCGAUAACAUUGUACAUUGGUUUACAUUUUUCUCCUUGAAUGAUUUUUCUAGAGGUCAUAGUGCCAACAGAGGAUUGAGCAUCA | 0.53 ratio |

Study 2
Target: Ras GTPase-activating protein-binding protein 1, full length (G3BP1, Homo sapiens, UniProt Q13283)
Sequence of UniProt Q13283 (whole entry, looked up): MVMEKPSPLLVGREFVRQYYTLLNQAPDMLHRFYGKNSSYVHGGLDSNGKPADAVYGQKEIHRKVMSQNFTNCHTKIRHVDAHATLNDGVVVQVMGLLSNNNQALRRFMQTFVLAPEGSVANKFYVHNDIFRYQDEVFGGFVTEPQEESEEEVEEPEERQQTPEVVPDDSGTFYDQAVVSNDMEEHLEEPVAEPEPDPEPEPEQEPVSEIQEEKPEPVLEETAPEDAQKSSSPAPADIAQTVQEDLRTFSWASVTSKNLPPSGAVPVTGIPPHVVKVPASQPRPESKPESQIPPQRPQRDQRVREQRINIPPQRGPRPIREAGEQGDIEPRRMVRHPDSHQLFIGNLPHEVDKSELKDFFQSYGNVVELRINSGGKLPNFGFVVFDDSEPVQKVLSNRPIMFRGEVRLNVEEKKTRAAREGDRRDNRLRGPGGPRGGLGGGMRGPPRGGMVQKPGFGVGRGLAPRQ
Technique: RNA Bind-n-Seq
Form: RNA
Sample: in vitro
Concentration: 200 nM
Notes: whole 134-nt RNA, ends assumed
Added: 150 mM LiCl
Baseline: input library
Reading: higher = stronger binding
Each molecule: 7-deaza-guanosine replaces G
| Oligonucleotide | log2 enrichment |
| --- | --- |
| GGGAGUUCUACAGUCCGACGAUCCAAGUCCUGUGCUACACAUCGUAUGUACCGAAUCGGAAAAAAAGGAAAGGAAAGGAAAGUAUUAUGUUACGCCGUUCGGAUCUGCACUUCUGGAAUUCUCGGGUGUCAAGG | -0.662 |
| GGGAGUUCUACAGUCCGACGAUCCAAGUCCUGUGCUACACAUCGUAUGUACCGAAUCGGGGUUUGGGGAGGGGAGGGGAAAGUAUUAUGUUACGCCGUUCGGAUCUGCACUUCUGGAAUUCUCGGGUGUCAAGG | 0.496 |
| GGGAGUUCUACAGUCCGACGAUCAGUCCUGUGCUACACAUCGUAUGUACCGAAUCGGGGAAAAAGGGGUUUGGGGUGGGGAAAGUAUUAUGUUACGCCGUUCGGAUCUGCACUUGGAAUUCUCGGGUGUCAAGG | -0.681 |
| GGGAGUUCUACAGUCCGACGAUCAAGUCCUGUGCUACACAUCGUAUGUACCGAAUCGGAAAAAGGAAAGGAAAAAAAGGAAAGUAUUAUGUUACGCCGUUCGGAUCUGCACUUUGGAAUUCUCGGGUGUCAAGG | -0.464 |
| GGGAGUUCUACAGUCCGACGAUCAGUCCUGUGCUACACAUCGUAUGUACCGAAUCAAACCCAAACCCCCAAACCCCCAAAAAAGUAUUAUGUUACGCCGUUCGGAUCUGCACUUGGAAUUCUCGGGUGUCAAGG | -0.026 |
| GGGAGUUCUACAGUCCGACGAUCCUCAAGUCCUGUGCUACACAUCGUAUGUACCGAAUCGGUUUGGAAAGGUUUGGAAAGUAUUAUGUUACGCCGUUCGGAUCUGCACUUCCAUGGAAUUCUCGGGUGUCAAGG | -0.16 |
| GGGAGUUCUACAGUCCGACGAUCCUGUGCUACACAUCGUAUGUACCGAAUCGGGUUUUUUUGGGGUUUUUUUGGGUUUUUUUGGAAAGUAUUAUGUUACGCCGUUCGGAUCUGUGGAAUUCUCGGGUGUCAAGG | 1.49 |
| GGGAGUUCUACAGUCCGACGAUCUCCUCAAGUCCUGUGCUACACAUCGUAUGUACCGAAUCGGAGGGAGGAGGGAAAGUAUUAUGUUACGCCGUUCGGAUCUGCACUUCCAGCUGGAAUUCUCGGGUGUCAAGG | -0.438 |
| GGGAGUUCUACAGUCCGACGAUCUAACUUUAGAGGAGGAUCUGAUGGAUAUGGCAGUGGACGUGGAUUUGGGGAAGGCUAUAAUGGGUAUGGAGGAGGACCUGGAGGUGGCAAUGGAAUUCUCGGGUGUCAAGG | -0.0889 |
| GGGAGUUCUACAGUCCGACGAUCUUUUGCAUUUAGGGUUUUAACCAAGAAGAUCUGGAAGAAGAAAAAGGUGAAACACAGGUAAAAGAAGCAGAAGAUUCAGAUUCUGAUGAUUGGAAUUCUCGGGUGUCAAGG | -3.29 |
| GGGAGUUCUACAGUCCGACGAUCUGGCCCUGGUGGCAUGAGGGGAGGAAGAGGUGGCCUCAUGGAUCGUGGUGGUCCCGGUGGAAUGUUCAGAGGUGGCCGUGGUGGAGACAGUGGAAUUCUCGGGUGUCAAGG | 0.656 |

Study 3
Target: RNA binding protein fox-1 homolog 2, RRM domain, GST-SBP tag (RBFOX2, Homo sapiens, UniProt O43251-10, residues 100-194)
Technique: RNA Bind-n-Seq
Form: RNA
Sample: in vitro
Concentration: 365 nM
Notes: natural RNA segment, single round, ends assumed
Baseline: no-protein control
Reading: higher = stronger binding
Construct (chain): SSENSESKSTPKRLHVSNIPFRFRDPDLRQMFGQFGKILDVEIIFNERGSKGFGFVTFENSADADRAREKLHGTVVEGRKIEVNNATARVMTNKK
| Oligonucleotide | RBNS enrichment (R) |
| --- | --- |
| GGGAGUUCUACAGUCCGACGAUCCUGCUUUUCCUAUAGUCAGAGGGCUCCAAGGUAGAACUCUCUAAGUCCCUCUCAAUGGCACUCUUUGCCUAGACCAAACUAAUGACCAAACAGUAAUCAAUCUAUCACUGUGGAAUUCUCGGGUGCCAA | 0.406 |
| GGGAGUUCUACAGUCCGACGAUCCACACAGACGAAGGUAGCCAGUCACAAGGUUCUGUGCCACCCUGGCCCUAGUGCUUCCAUCUGAUGGGGUGACCACACCCCUCACAUUCCACAGGCCUGAUUUUUAUAAAUGGAAUUCUCGGGUGCCAA | 0.727 |
| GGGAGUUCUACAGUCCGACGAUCGCAUUGCCAUUGGAGGCUCAAUUGACUGAAAUUACUUUAACAUUUUGGAAAUUGUUAUGUAUCACUAAAAGCAUGAAUUGGAACUGCACUGGAAGUCAAAUUCACUUAAAUGGAAUUCUCGGGUGCCAA | 5.73 |
| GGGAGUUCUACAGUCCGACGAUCAAGAACAUUAACGUCACAAGUUCUAAGUAGUUUUCACAGCAAAGAAUAUUUGAUAAUGGUUGCACUUAUCUUCAGUGCAGGUUAGAAGAGUCUUCUCAACCAAGCUUAACUGGAAUUCUCGGGUGCCAA | 0.3 |
| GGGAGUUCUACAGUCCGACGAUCCGGAAUGUGUCAGUGCAUUUUCUCCUUGCUGAGAGUCUCAGCUCCAAUCUCUUCAUAAUUUUGUUCUGUAAAAGAUGAACCUUUCCGAGUGAUGCAUUCAAACUGUCUAGUGGAAUUCUCGGGUGCCAA | 0.658 |
| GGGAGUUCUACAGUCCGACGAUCAAAAAGGAAAUGCAUUAAAUAGAAGGUUGAUAGUUUAUCAUAAACCUGCGGGGAAGAAACUCAGACUUUCUAUUUUUGAUAUUUUGUGCAUUAAUACAUUACAAACAUGAUGGAAUUCUCGGGUGCCAA | 1.37 |
| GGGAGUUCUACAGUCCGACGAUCCUGUCUGCACAUUUGGGGGUCUCUAUAUUUCUGAAGAGGUAAGCUGAUGAAAAUAAAUAGAGUGUAAAUUCUUUUUAAUGCUUUAGUGAUUAAAUGUUUUAGUAUUUUGAUGGAAUUCUCGGGUGCCAA | 1.93 |
| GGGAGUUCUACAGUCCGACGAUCAAACCCGACAACAUUUCUGCCAGGUUUGUUAGGAGGCCACAUGAUACUUAUUCAAAAAAAUCCUAGAGAUUCUUAGCUCUUGGGAUGCAGGCUCAGCCCGCUGGAGCAUGUGGAAUUCUCGGGUGCCAA | 0.263 |
| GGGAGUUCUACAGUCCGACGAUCAGGAGCCCCAUAGUCCCGCCUGCAGCCUGUAACCAUCGGCUGGGCCCUGCAAGGCCCACACUCACGCCCUGUGGGUGAUGGUCACGGUGGGUGGGUGGGGGCUGACCCCAUGGAAUUCUCGGGUGCCAA | 0.375 |

Study 4
Target: Sal-like protein 4, full length isoform B (SALL4, Homo sapiens, UniProt Q9UJQ4-2, residues 1-616)
Technique: universal PBM
Form: double-stranded DNA, one strand shown
Sample: in vitro
Concentration: not given
Notes: 8-mer, flanks averaged, mean of replicates
Reading: higher = stronger binding
| Oligonucleotide | E-score |
| --- | --- |
| CGCAAAGA | 0.0505 |
| GGCGAGGA | -0.0406 |
| AAGGCCCA | -0.21 |
| GATTAGCA | 0.0551 |
| AAGTCTGC | -0.0649 |
| CTCTTCGC | -0.146 |
| AGGGACCT | -0.174 |
| CCGGATCC | -0.176 |
| GGCCCGAC | -0.37 |
| CCCTACAG | -0.102 |
| GAAGCCTA | 0.00341 |
| ATAGATTC | 0.212 |
| ACGTTTGA | 0.202 |
| AATAAACG | 0.307 |
| CATCCGAA | 0.0318 |
| AGCGTTCA | -0.131 |
| TAGTTGGA | 0.0482 |
| AAAGACAA | 0.212 |
| ATATCGAA | 0.264 |
| AGAGAGCT | -0.188 |
| CAGACCGA | -0.207 |
| ATCCAGCG | -0.0534 |
| CATGCTCC | -0.128 |
| GATGTACA | 0.204 |
